Assay results gathered from unrelated publications.
Each numbered part is a random draw from the data of one study; scales do not carry over between parts. Substitutions count along the parent as printed.

Set 1 — technique: RNA Bind-n-Seq; molecule type: RNA; matrix: in vitro; tested at: 365 nM; reference: no-protein control; direction: higher = stronger binding
Target: RNA binding protein fox-1 homolog 2, RRM domain, GST-SBP tag (RBFOX2, Homo sapiens, UniProt O43251-10, residues 100-194)
Notes: natural RNA segment, single round, ends assumed
Shared flanks, not repeated: GGGAGUUCUACAGUCCGACGAUC … UGGAAUUCUCGGGUGCCAA
Residues (chain): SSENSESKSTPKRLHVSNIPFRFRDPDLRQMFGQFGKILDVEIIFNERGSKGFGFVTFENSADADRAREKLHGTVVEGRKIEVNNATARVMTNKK
Oligonucleotide | RBNS enrichment (R)
CUGUGGAACUUAAAGAAUGUGAAAGCUGUCAAAGGGUAUUUUACGAAUCACUUUUGUGUUUGAUAUAGUAAAACAAUGUGAUUCAUUCCAAAGUAACAGAAGGUUAUUUG | 1.88
CUCCUGAUUUCCCUAAGGAGCCUGGGAUGAUGUUGGUCAAAUGACCUAGAAACAAGGAUUCUACCUGAACUGAAAGGACUGUGUGACCUCCCCCAAGCCAACCACUUUCA | 0.323
CUCAUGAUAUAAUUUGCUAUAACAAUAUUGUAUUAUGCCUUGAAGUUUUAAGCAUUUAAUAUAAAACAUUAUAACAUUAGUUUGUACUUUUUGCUAAUAGUUUGAGCACA | 0.402
CUGUUGUUUUAGAACUUUUUUAAAAAAACAGACCUCGUUUUAGAUUUAUAGCAUUGACUUUUACACACAUUCACACAAGAAAAAAAUCCUUUCAAAAUUCUUAAAUCUUC | 0.795
UGGGGUUUGGAUUUCCCCAGGAAGAUGGAGAAUGGAAUACUCACUCUUGGGUCUAAUCUUUCCCCUUGACCCAGAACUUCCUCCCCACAAAAAUGCCUUUAAAAACCUUC | 0.809
GGUUUUCAUCGGCUGUGCCAUUUCCCAACGUCUUUUGGGAUUUACAUCUGUCUGUGUUAAAAUAAUCAAACGAAAAAUCAGUCCUGUGUUGUCAGCAUGAUUCAUGUAUU | 0.941
AAAAAAAGAGUUGAGUGAAUCUGUUUACAUUUAGAAUAAUGUUUUUUUCUUCAAGAGACGCAAUUGCAAUAGUAUUUUUUAGAUUUUAUCCAAGAAGUUUUUUGGGCGAA | 0.466
UCAGAGCUCCCAAGCCUUCCCCCACCACCUCACUCAAGUGCCCCUGAAAUCCCUGCCAGACGGCUCAGCCUGGUCUGCGGUAAGGCAGGGAGGCUGGAACCAUUUCUGGG | 0.559

Set 2 — technique: RNA Bind-n-Seq; molecule type: RNA; matrix: in vitro; tested at: 20 nM; notes: 6-mer, flanks averaged, single round; together with: 150 mM LiCl; reference: input library; direction: higher = stronger binding
Target: TAR DNA-binding protein 43, full length, His tag (TARDBP, Homo sapiens, UniProt Q13148, residues 1-414)
Oligonucleotide | 6-mer enrichment (R)
CCUAUG | 0.947
CGGAUC | 0.881
UAGUGG | 1.18
AGUAUU | 0.952
CACCGG | 0.882
UUCUGA | 0.867
ACACCU | 0.951
ACCCAU | 0.973
AUGCGG | 1.04
AAUCGC | 0.815
CGGCCU | 0.926
CGUUCG | 0.885
AACCAG | 0.849
CUAAAG | 0.846

Set 3 — target: CCNB1, cyclin fold, Cln2 fusion (human); technique: yeast growth competition, sequencing; matrix: yeast; notes: strong parent motif; reference: not given; direction: higher = stronger binding
Starting sequence: BRCA2 docking peptide (human); PSIKRNLLNEFDR
Substitution | normalised enrichment score
S2V | 0.547
E10V | -0.455
F11D | 0.175
L7W | -0.204
R5Y | 0.253
I3S | 0.711
P1W | 4.23
L7Y | -0.144
D12T | 0.783
I3E | 0.456
R13V | 2.82
N6T | 0.798
I3L | 1.59
K4Y | 2.31
S2A | 1.25

Set 4 — technique: protein-binding microarray; molecule type: double-stranded DNA, one strand shown; matrix: in vitro; tested at: 2540 nM top; notes: 60-bp whole probe; together with: salmon DNA 0.4 mg/ml; reference: random background probes; direction: higher = stronger binding; shared flanks, not repeated: GCCTAGCAC … GTCTTGATTCGCTTGACGCTGCTG
Target: Interferon regulatory factor 3, full length, phosphomimetic (IRF3, Homo sapiens, UniProt Q14653, residues 1-427, S386D/S396D/S398D/S402D/T404D/S405D)
Target sequence (chain): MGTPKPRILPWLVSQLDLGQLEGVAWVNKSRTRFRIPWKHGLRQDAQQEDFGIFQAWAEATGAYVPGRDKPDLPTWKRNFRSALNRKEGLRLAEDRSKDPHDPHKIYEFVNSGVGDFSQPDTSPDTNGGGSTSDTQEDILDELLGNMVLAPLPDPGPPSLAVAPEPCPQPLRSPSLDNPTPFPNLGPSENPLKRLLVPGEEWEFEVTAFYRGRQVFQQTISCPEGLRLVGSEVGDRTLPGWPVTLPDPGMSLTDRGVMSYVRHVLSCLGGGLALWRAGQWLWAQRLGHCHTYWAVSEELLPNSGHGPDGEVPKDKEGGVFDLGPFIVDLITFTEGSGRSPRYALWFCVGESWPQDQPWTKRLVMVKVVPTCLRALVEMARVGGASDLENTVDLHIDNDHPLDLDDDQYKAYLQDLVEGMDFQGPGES
Oligonucleotide | fitted relative affinity
GACGGTATCGGTATCGGTACGTGCTAG | 5.24 z-score
GACGGTTTCGGTTTCGTGACGTGCTAG | 10.8 z-score
TGAGGACTGGACTATCGGTTAGTGCTA | -0.727 z-score
TAATATCTAAGATTCTAGCCGTGCTAG | -0.182 z-score
TTAGGACTGCTTATCCTTTGGTGCTAG | -0.221 z-score
GGTATTCGGAACTTTTAGCTGTGCTAG | 0.929 z-score
GACGGTATCCGTCTCCTGACGTGCTAG | 4.33 z-score
ATAGGTTTCGGGACTGGGTTAGTGCTA | 4.48 z-score
TCAGGTTTACCAGATCATACTGTGCTA | 0.653 z-score
GACGATCTCAGTCTCGAGATGTGCTAG | 0.74 z-score
TCACTTCCATTTTCTGAAACTGTGCTA | 3.51 z-score
TTAGGTTTCCTTTTCCTCTAGTGCTAG | 11.3 z-score
GACGGTCTCGGACTCGGGACGTGCTAG | 0.506 z-score
GACGGGTTCGGTTCCGGGACGTGCTAG | 2.68 z-score
AGGAAAGTGTTTCTCAACCAGTGCTAG | 0.773 z-score
TACGGTTTCGACTATCGGGACGTGCTA | 2.67 z-score
GAAAGGTACCATGGTGGCTCGTGCTAG | 0.566 z-score
TTAGGATTCCTTATCCTTTAGTGCTAG | 3.99 z-score
TTAGGACTGGGGACTGGGTAAGTGCTA | -0.858 z-score

A few entries again (set 3):
Substitution | normalised enrichment score
I3S | 0.711
P1W | 4.23
L7Y | -0.144
D12T | 0.783
I3E | 0.456
R13V | 2.82
N6T | 0.798
I3L | 1.59
